Measured values from different studies.
A part holds a random share of what one study measured.

Study 1
Target: RNA binding protein fox-1 homolog 2, RRM domain, GST-SBP tag (RBFOX2, Homo sapiens, UniProt O43251-10, residues 100-194)
Method: RNA Bind-n-Seq
Molecule type: RNA
Matrix: in vitro
Tested at: 365 nM
Notes: natural RNA segment, single round, ends assumed
Baseline: no-protein control
Reading: higher = stronger binding
Constant ends, left off below: GGGAGUUCUACAGUCCGACGAUC … UGGAAUUCUCGGGUGCCAA
Construct (chain): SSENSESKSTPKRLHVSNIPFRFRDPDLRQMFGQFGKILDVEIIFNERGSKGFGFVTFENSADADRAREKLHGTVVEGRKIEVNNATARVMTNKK
Oligonucleotide | RBNS enrichment (R)
UACCGGCUCUCUGUCACUCACCUUGAGAGUAGAGCAGACCCUGUUCUGCUCUGGGCUGUGAAGGGGUGGAGCAGGCAGUGGCCAGCUUUGCCCUUCCUGCUGUCUCUGUU | 0.177
ACCCCAUCCCUUCUCUCGCGCGCCUAUUGAUUUGUUUCUGAGGAGAGUACACCGUUCACUAUUGUAGAGUAACCCCUGUGACUCAAUAUUACCAUAGUGCGAUGUCGUUU | 0.427
AUAAAUAGAGGGAAACUUGGAUGCUAAAAUUACAUGAAUAGGAAUCUUCCUGGCACUUAGUGUUUCUAUGUUAUUGAAAAAUGAUGUUCCAGAAAGAUUACUUUUUUCCU | 0.428
UUACUACAAAUGCUUAUUCUCAUUGACUUAUUUCUUUCAUGGUAACUUUCGUUUUGGAGUGUUCAUUUUCUGAACUUGACCCUCACAUUGUAGGGGUGCAGUUUGUCCAA | 0.274
GUCUAGCACCUAGAUUACAGCCAGGAACAUUGGUUAAGAACUGUUGGAAACAAAACUAAAAGCAAACUCAACAUAUGUGAUGUUUAUGGCCCUCAGAUCCUUAGUAUUGU | 2.98
AGGCCCUGGGCAAAGAAGGGUCUUUCGCAAAGCGAUGUCAGAGGGCGGUUUUGAGCUUUCUAUAAGCUAUAGCUUUGUUUAUUUCACCCGUUCACUUACUGUAUAAUUUA | 0.469
UCUCCACACAUCACCUGUUGUCUCACAAAAAGUAGGGGAACCUUGUCAGUCACAUAGGACAGGAUAUUUAAUGUACUUUUCCUUUCUCUGAGCCACAGUUAGCUGCUAUU | 0.335
GCCUUUAUCCAAUAACAAACCAGCAUCUCUUAAAGGCGCUUUUGGCCUAGACACCCCUGAAGUUUGGAUGAAGUCUGGUGGAUUCCCUGUCUGUUGUAUUUCUGUGUGCC | 2.61
UCCUGGCAUGGAUGUUCUGUCCACACUUGAGGCUGGGCGGUGUAUCAGACCCUUCAAGCAGCCUGGCUGGGGCCCAGGACUGAGUCUGGGGUCAGCUUUCACGGUCGCUU | 1.06
ACCCUUGCUGGGUCACUAUAAUUCUUUAGAAUUACUGAGUGAACUUUAAAAAAAUUUUCUGCAUAGGUUAUAUCCCAGACCACUUAAAUCAGAAUAUCUUGGAUGGAACC | 0.541
AGGACCCAGCCCUCGCCUCUGCGAGAAUGAACAUAUUUGAUAGAUUUUUCUUAACAAGUUAGAAAAUUCAGCUCCUUUCUGUCCUGGAGCUAGCAAAGACUUGUGUGAUG | 0.531
UACCAGUGAGUGCCUUAAAGUUGGAGAAGUAACUGCCCAUGCCCAGAAAUAAGGAUGCCAGUGCCCAGAAGCAGUGAGAUUAGUCUGUGUCCACAAGCAGAGGCCCCCUC | 3.26

Study 2
Target: Interferon regulatory factor 5, full length, phosphomimetic (IRF5, Homo sapiens, UniProt Q13568-2, residues 1-514, S451D/S453D/S456D/S462D)
Method: protein-binding microarray
Molecule type: double-stranded DNA, one strand shown
Matrix: in vitro
Tested at: 940 nM top
Notes: 60-bp whole probe
Together with: salmon DNA 0.4 mg/ml
Baseline: random background probes
Reading: higher = stronger binding
Constant ends, left off below: GCCTAGCAC … GTCTTGATTCGCTTGACGCTGCTG
Oligonucleotide | fitted relative affinity [z-score]
GAACCTTCAGCTCTAGGTTCGTGCTAG | 0.189
TCACTCTTCTTTTTTTTACTGTGCTAG | 2.26
GACGGACTCCTTATCCTGACGTGCTAG | 0.17
TTAGGTATCGGGTTTCGATTAGTGCTA | 7.38
TTAGGTATCGACACTGGGTGAGTGCTA | 4.77
TTAGATTTCGGGTAACGATTAGTGCTA | 1.29
TTAGGTTTCGGGTTTAGGTTAGTGCTA | 9.84
CAAGTGGAGCCCAGGCCAGAGTGCTAG | -0.774
GACGATTTCGGACTGGAGACGTGCTAG | 0.0238
TTAGCACTGAGACTGGATTAGTGCTAG | -0.4
TCATCTCCCAGACTGGAACTGTGCTAG | 0.347
CACGGTATCGGGTATCGGGACGTGCTA | 5.1
ATGACTCTGCCTCTAACTGCGTGCTAG | -0.109
GACGCACTGGGTCTCGGGACGTGCTAG | -0.194
TTAGATTTCAGGATCGATTAGTGCTAG | 0.456
GACGGGTTCGGTTCCGGGACGTGCTAG | 0.126
GACGACATCGGGTATCGAGACGTGCTA | 0.93
TTAGCACTGGACTATCGGTTAGTGCTA | -0.201
TCAATGTTCCTTATTTAACTGTGCTAG | 0.6
GACGTTATCGGGTATCGAGACGTGCTA | 0.795
GACGGTATCGACTTTCAGGACGTGCTA | 4.02
TTAGGTATCGACTATCGGGTAGTGCTA | 5.62
GACGAACTGAGTATCTAGACGTGCTAG | -0.155
GACGAACTGAGACCGGAGACGTGCTAG | -0.675
TCAACTTTCTATGTCTGACTGTGCTAG | 1.11

Study 3
Target: RING finger protein unkempt homolog, zinc fingers 1-6, SBP tag (UNK, Homo sapiens, UniProt Q9C0B0, residues 30-357)
Chain of UniProt Q9C0B0 (30-357, looked up): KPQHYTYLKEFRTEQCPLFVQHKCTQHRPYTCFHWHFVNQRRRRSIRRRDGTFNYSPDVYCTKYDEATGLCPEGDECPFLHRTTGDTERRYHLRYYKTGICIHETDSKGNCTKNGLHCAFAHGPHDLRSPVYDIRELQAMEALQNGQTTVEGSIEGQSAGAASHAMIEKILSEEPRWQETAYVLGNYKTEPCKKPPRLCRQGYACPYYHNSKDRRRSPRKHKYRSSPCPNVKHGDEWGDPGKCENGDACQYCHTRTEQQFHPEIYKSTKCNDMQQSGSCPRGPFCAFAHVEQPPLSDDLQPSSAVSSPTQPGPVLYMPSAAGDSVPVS
Method: RNA Bind-n-Seq
Molecule type: RNA
Matrix: in vitro
Tested at: 100 nM
Notes: RNA with constant flanks, vertebrate orthologous sites, ends assumed
Baseline: input RNA pool
Reading: higher = stronger binding
Constant ends, left off below: GGGAGUUCUACAGUCCGACGAUC … CAACAGAGGAUUGAGCAUCA
Oligonucleotide | bound/input enrichment [ratio]
UUUACUUUGCUUUCAUUUUAUUCCUUUAUUUCUUCCUUCCUUCCUUUUUUCUUUUUUUUUUUGGUAGUUGUUACCACGCCAUUUUACGUCUCCUUCACUGAAGGGCUAGAGUUUUAACUU | 4.49
UUCACUACCUGAGUCGGGUGGAGGUGACAGAGUUCGAAGACAUCAAGUCGGGCUACAGAAUAGAUUUUUACAGUCAUCCUUCUCGAUAUUCCUCAUACCCGCUACCUACCCUCUUCCCUA | 0.328
AUUUUUUAAAGUUUUUUUAAUUUAAUUUUUCCUUUUGGGGGUAAAGUUUGCUCUACCAAAUAGUGAUUGUAACAAAUUGAUCUGUUUUGGAUGUUGCUAUAGUGACAUGCAGUUAUAUAU | 0.72
CAGCUGAUUCACUUAUUGGGAGAGCUGCACAUAUUGCUGUUCUUGAUUCAGAAAUAUUUUUAGAAAAAUUUUUUCUAGUGGCUGCUCUAAAAUAUUUCCAGUAGCAUAAAAGCAUUGUUA | 0.507
UAUAAUUAUGAAAAUCUAACGGAUUUUUAAUGUUUAAUUUCCCCCAACAUAUAUAUGAAGACCUUUUUUUUUUUUUCCAGGCAGAUCAUUCAGAGUGUGCGAGUGUGUGUGCACAUGUUA | 1.1
CACAAUCUCUACUUAAGUAGGUUUUUACAUACCAAGUUAAGCCUUCAUUUUACAUAUUUACAGCUUUUCUCCGGAGGAGAUAAAAGAAUCUCAUGCUUAAAGUUACAUGUGGUCUUUGCC | 0.349
UCCCGGCAGCGCCAGCGCGGGUAGCCACCCUUCUCACACUGCUCUGUCUUUAUUUUAUUUUCCUCAGGACUGACCUUGAGGCUCCAGCUUUUGUGGUUCAUCUCGUAUUUAUUUUAUCUU | 1.16
UGACCCCCUCCCUGGUGAGAGGGAGUGGGGAGCUCAGGAUGACCCUCAGCUGUUCCAAUCCGGUAUUUUUUUUUCUUUUUCAAAAUUACUGUAUUUAUUAUGACGAUGGUGACUCCCCGG | 0.729
UUCAGGCACAACUGACUGGCUCACAACAUUCCUUACAUAGUUUUCUAUCAAAUACAAGUGUAGCCAAUUUUCAGGAAACAACCAGGCAGUCACCUUUAUCCUGCAGUCCUAUUGGAGAUU | 1.15
UAUUGUACUUGGAUAAGUCAUCUUAGUUUUAAUCUAGUCACAGUGAUAAGUAGCCUGUGCUGGUAGAAUCGUUUACUCUUACCUUUUAAAUUAUCUUCUCUGUCUGAUACCUGAAACCAA | 0.962
AGCAGUAUAGGUUAUAUUUGAACUGUGGGGAAGAGAGCUUUGCAUUUUUUAUAUUUAAAUAGGAUACUUUUUAUAUGAUGGGUGCUUUGAGUGUGAAUGCAGCAGGCUCUCCAUUUCAGA | 1.78

Study 4
Target: Histone acetyltransferase KAT6A, winged helix 1, GST fusion (KAT6A, Homo sapiens, UniProt Q92794, residues 1-85)
Method: protein binding microarray
Molecule type: double-stranded DNA, one strand shown
Matrix: in vitro
Tested at: not given
Notes: 8-mer, flanks averaged, mean of 2 arrays, mostly near background
Baseline: not given
Reading: higher = stronger binding
Target sequence (chain): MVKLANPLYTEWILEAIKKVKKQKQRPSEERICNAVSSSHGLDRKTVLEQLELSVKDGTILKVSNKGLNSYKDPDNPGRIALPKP
Oligonucleotide | E-score
AAACAGAC | -0.117
ACTCCACT | -0.299
CGCCCCGC | 0.367
ACTATGCC | 0.144
AAAGTTAA | -0.0851
ATATGCAC | -0.0765
TCTGTCCA | -0.144
CACGGTGG | 0.0248
TGATGACA | -0.195
ACCGGTAT | 0.186
CACACTCC | -0.125
ATGGTAGC | 0.0403
CTGGTGAA | -0.0958
GACGTTTA | -0.0371
CGTTTGAG | -0.101
CACCTCGC | 0.167
GAGGACTA | 0.06
CTGGGACC | -0.0892

Repeated from above (study 4):
Oligonucleotide | E-score
ACTCCACT | -0.299
CACGGTGG | 0.0248
CACCTCGC | 0.167
CTGGGACC | -0.0892
